Assay results of several laboratories.
Protocols differ between the studies behind these lines. Several values in a cell are separate wells, animals, samples, runs or records. ± marks the error that the study gave.

| Molecule | cell line | assay | system | setting | how to read | measurement | result |
| --- | --- | --- | --- | --- | --- | --- | --- |
| CN(C)c1ccc(C2Nc3ccc(-c4ccccc4)cc3NC3=C2C(=O)CC(C)(C)C3)cc1 (stereo not drawn) | H4 | cytoprotection |  | together with: thapsigargin 7.5 µM |  | EC50 | 14.3 ± 0.31 µM |
| exonuclease 1 (human) | NIH3T3 | confocal microscopy, measured: YFP-tagged compound |  | concentration not given, PCNA replication foci, together with: co-transfected CFP-PCNA |  | cells without foci | 40% |
| C=C(C[C@H](N)C(=O)O)C(=O)Nc1ccc(Cl)cc1 | MCF7 cells | cell growth inhibition |  | 72 h | reference: vehicle | lowest significantly active concentration | 320 µM |
| TAGSCLRKFSTM | bovine aortic endothelial cells |  | peptide, peptide-coated plate | 10 to 25 µg/well, 30 to 60 min, 37 °C |  | cell adhesion | ~25% |
| LRRFSTMPFMFININNVINF | HUVEC | cell adhesion, real-time cell analysis | peptide | 100 µM, 3 h | reference: vehicle | inhibition | 98.58 ± 0.12% |
| CCN1C(=O)/C(=C\c2ccc(Cl)cc2)S/C1=N/N=C(\C)c1ccccn1 | Vero | cell growth or viability, SRB |  | 100 µg/mL, 48 h |  | inhibition | 53.3% |
| CC(=O)O[C@H]1C(=O)[C@@]2(C)[C@H]([C@H](OC(=O)c3ccccc3)[C@]3(O)C[C@H](OC(=O)[C@H](O)[C@@H](NC(=O)c4ccccc4)c4ccccc4)C(C)=C1C3(C)C)[C@]1(OC(C)=O)CO[C@@H]1C[C@@H]2O | PC-9 expressing CD8-EGFR-CL |  |  | 2.5 nM | reference: parental PC-9 cells | proliferation and colony formation | no effect |
| COc1cccc2c1C(=O)c1c(O)c3c(c(O)c1C2=O)C[C@@](O)(C(=O)CO)C[C@@H]3O[C@H]1C[C@H](N)[C@H](O)[C@H](C)O1 | KB 3-1 | flow cytometry |  | 5 µM, 2 h plus 2 h washout |  | drug effluxed | ~20% |
| Ac-ARPSA-NH2 (N-acetyl, C-amide) | GM7373 bovine endothelial | cell proliferation, inhibitor | peptide | 24 h, together with: 0.55 nM FGF2, 0.4% FCS |  | ID50 | > 1000 µM |
| CCN(CC)c1ccc(C2Nc3ccc(C(=O)c4ccccc4)cc3NC3=C2C(=O)CC(C)(C)C3)cc1 (stereo not drawn) | H4 | cytoprotection |  | together with: thapsigargin 7.5 µM |  | EC50 | 11.4 ± 2.26 µM |
| CNc1ncnc2c1ncn2[C@H]1C[C@H](OP(=O)(O)O)[C@@H](COP(=O)(O)O)O1 | MIN6 | antagonist, ELISA |  | 10 µM, together with: 2-MeSADP 10 µM, glucose 16.7 mM |  | insulin secretion | inhibited |
| Clc1ccc2cc(-c3ccccc3)[nH]c2c1 | HEK293 NF-κB luciferase reporter | reporter gene, measured: NF-κB |  | 50 µM, 6 h, together with: TNFα |  | inhibition | 91.5 ± 1.2% |
| CSVTCG | bovine aortic endothelial cells |  | peptide | 2 µg coated per well, 30 to 60 min | reference: thrombospondin-coated wells | adherent cells | 49% and 80% |
| C/C(=N\NC(N)=S)c1ccccn1 | Vero | cell growth or viability, SRB |  | 100 µg/mL, 48 h |  | inhibition | 61.2% |
| Cn1c(-c2ccccc2)cc2ccccc21 | HEK293 NF-κB luciferase reporter | reporter gene, measured: NF-κB |  | 50 µM, 6 h, together with: TNFα |  | inhibition | 0% |
| CCN(CC)c1ccc(C2Nc3ccc(C(F)(F)F)cc3NC3=C2C(=O)CCC3)cc1 (stereo not drawn) | H4 | cytoprotection |  | together with: thapsigargin 7.5 µM |  | EC50 | > 50 µM |
| C#C[C@@]1(O)[C@@H](CO)O[C@@H](n2cc(I)c3c(N)ncnc32)[C@@H]1O | SR | cell growth or viability, SRB |  | 48 h |  | GI50 | 0.28 µM |
| Ac-ALPCA-NH2 (N-acetyl, C-amide) | GM7373 bovine endothelial | cell proliferation, inhibitor | peptide | 24 h, together with: 0.55 nM FGF2, 0.4% FCS |  | ID50 | > 1000 µM |
| Nc1cccc(-c2cc3ccccc3[nH]2)c1 | HEK293 | cell growth or viability |  | 50 µM |  | viability | 70.7% |
| C=CCc1ccc(O)c(OC)c1 | mES-D3 cell | cardiomyocyte differentiation, RT-PCR, measured: MHC |  | 240 h |  | ID50 | 5.43 ± 0.715 µg/mL |
| C#C[C@@]1(O)[C@@H](CO)O[C@@H](n2cc(Br)c3c(N)ncnc32)[C@@H]1O | SR | cell growth or viability, SRB |  | 48 h |  | GI50 | 0.064 µM |
| COc1ccc(C2=Nn3c(nnc3-c3[nH]nc4c3CCC4)SC2C)cc1 (stereo not drawn) | CAL-33 | cell growth or viability |  |  |  | GI50 | 0.2 µM |
| RBRBRBRBRBRBRBRBB (PMO conjugate) | pLuc705 cells | flow cytometry | peptide | 2 µM, 24 h, 10% serum, unit not given | higher = more uptake | cellular uptake | 111 |

| Molecule | cell line | assay | system | setting | how to read | measurement | result |
| --- | --- | --- | --- | --- | --- | --- | --- |
| Ac-ARPCAPGAPAEARL-NH2 (N-acetyl, C-amide) | GM7373 bovine endothelial | cell proliferation, inhibitor | peptide | 24 h, together with: 0.55 nM FGF2, 0.4% FCS |  | ID50 | 10 µM |
| COc1cc(N2CCC(N3CCN(C)CC3)CC2)ccc1Nc1ncc(Cl)c(Nc2ccccc2S(=O)(=O)C(C)C)n1 | NIH3T3 in PANC/NIH microtissues | fibroblast toxicity |  | 168 h, chronic toxicity, unit not given | reference: AC50 ATP over AC50 NanoLUC, day 7 | therapeutic window | 2.47 |
| CO/C1=C\C(C)=C\[C@@H](C)[C@@H](O)[C@@H](C)C/C(C)=C/C=C/[C@H](OC)[C@@H]([C@@H](C)[C@@H](O)[C@H](C)[C@@]2(O)C[C@@H](O)[C@H](C)[C@@H](C(C)C)O2)OC1=O | CHO-K1 | fluorescein-WGA ratio imaging |  | concentration not given, 37 °C, medium pH 7.4 |  | cell surface pH | 9.06 ± 0.06 |
| Ac-GRPCG-NH2 (N-acetyl, C-amide) | GM7373 bovine endothelial | cell proliferation, inhibitor | peptide | 24 h, together with: 0.55 nM FGF2, 0.4% FCS |  | ID50 | 1000 µM |
| CC1=C(CC(=O)Oc2ccc(OC(=O)CCCO[N+](=O)[O-])c(C(=O)Oc3ccc(-c4cc(=S)ss4)cc3)c2)c2cc(F)ccc2/C1=C\c1ccc([S+](C)[O-])cc1 (stereo not drawn) | IMR-90 and cancer cell lines | cell growth |  | 24 h | reference: IMR-90 over cancer cells | IC50 ratio | 70 to 270 fold |
| COC[C@H]1OC(=O)c2coc3c2[C@@]1(C)C1=C(C3=O)[C@@H]2CCC(=O)[C@@]2(C)C[C@H]1OC(C)=O | LNCaP expressing Abi1 Y213F |  |  | 0.2 µM, 2 h, together with: 10 ng/mL PDGF |  | macropinocytic uptake | inhibited |
| COCn1c(-c2ccccc2)cc2ccccc21 | HEK293 | cell growth or viability |  | 50 µM |  | viability | 107% |
| COc1ccc(CC2COc3cc(OC)c(OC)c(OC)c3C2=O)cc1O (stereo not drawn) | ARPE-19 | cell growth or viability, resazurin |  | 48 h |  | GI50 | > 100 µM |
| Oc1c2ccccc2c2c3c(cccc13)N=N2 | Drx-KOR cells co-expressing OX1R | dynorphin-induced β-arrestin recruitment, inhibitor, PathHunter |  | 20 µM, 18 h, together with: dynorphin for 90 min |  | OX1R-enhanced β-arrestin recruitment | inhibited |
| c1ccc(-c2cc3ccccc3[nH]2)cc1 | HEK293 NF-κB luciferase reporter | reporter gene, measured: NF-κB |  | 50 µM, 6 h, together with: TNFα |  | inhibition | 76.3 ± 8.2% |
| COC1=CC(c2cc3ccccc3[nH]2)=N/C1=C\c1[nH]c(C)cc1C | NIH3T3 in PANC/NIH microtissues | fibroblast toxicity |  | 168 h, chronic toxicity, unit not given | reference: AC50 ATP over AC50 NanoLUC, day 7 | therapeutic window | 3.88 |
| CCCCN(CCCC)c1ccc(C2Nc3ccc(Br)cc3NC3=C2C(=O)CC(C)(C)C3)cc1 (stereo not drawn) | H4 | cytoprotection |  | together with: thapsigargin 7.5 µM |  | EC50 | ~13 µM |
| RXRXRXRXRXRXRXRXB (PMO conjugate) | pLuc705 cells | flow cytometry | peptide | 2 µM, 24 h, 10% serum, unit not given | higher = more uptake | cellular uptake | 92 |
| ANKHYF | bovine aortic endothelial cells |  | peptide | 2 µg coated per well, 30 to 60 min | reference: thrombospondin-coated wells | adherent cells | 0% |
| C(=NOCc1ccccc1)c1c(-c2ccccc2)[nH]c2ccccc12 | HEK293 NF-κB luciferase reporter | reporter gene, measured: NF-κB |  | 50 µM, 6 h, together with: TNFα |  | inhibition | 50.2 ± 3.9% |
| COc1cccc2c1C(=O)c1c(O)c3c(c(O)c1C2=O)C[C@@](O)(C(C)=O)C[C@@H]3O[C@H]1C[C@H](N)[C@H](O)[C@H](C)O1 | RS4-11 |  |  | 72 h, together with: cytotoxic drug | below 1 means synergy | combination index | 0.89 ± 0.03 |
| O=C(/C=C/N1[C@H]2CC[C@@H]1c1ncnc(NC3CC3)c1C2)c1ccccc1O | C2C12 myoblasts | myoblast differentiation |  |  |  | effective concentration | 5 µM |
| H-ARPCA-NH2 (C-amide) | GM7373 bovine endothelial | cell proliferation, inhibitor | peptide | 24 h, together with: 0.55 nM FGF2, 0.4% FCS |  | ID50 | 500 µM |
| Cc1ccccc1-c1cc2ccccc2[nH]1 | HEK293 NF-κB luciferase reporter | reporter gene, measured: NF-κB |  | 50 µM, 6 h, together with: TNFα |  | inhibition | 0% |
| CSTSCG | bovine aortic endothelial cells |  | peptide | 2 µg coated per well, 30 to 60 min | reference: thrombospondin-coated wells | adherent cells | 39% |
| CC(C)=CCn1c(-c2ccccc2)cc2ccccc21 | HEK293 NF-κB luciferase reporter | reporter gene, measured: NF-κB |  | 50 µM, 6 h, together with: TNFα |  | inhibition | 47 ± 2.7% |
| COc1ccc(C(C)=NNC(=O)COc2ccc3c(C)cc(=O)oc3c2C)cc1OC | LPS-stimulated human macrophages | ELISA | conditioned medium | 5.3 µmol/mL, 48 h | reference: dexamethasone, reduction | IL-6 level | 1.2 fold |

Repeated from above:
| Molecule | cell line | assay | system | setting | how to read | measurement | result |
| --- | --- | --- | --- | --- | --- | --- | --- |
| RXRXRXRXRXRXRXRXB (PMO conjugate) | pLuc705 cells | flow cytometry | peptide | 2 µM, 24 h, 10% serum, unit not given | higher = more uptake | cellular uptake | 92 |
| CNc1ncnc2c1ncn2[C@H]1C[C@H](OP(=O)(O)O)[C@@H](COP(=O)(O)O)O1 | MIN6 | antagonist, ELISA |  | 10 µM, together with: 2-MeSADP 10 µM, glucose 16.7 mM |  | insulin secretion | inhibited |
| Cn1c(-c2ccccc2)cc2ccccc21 | HEK293 NF-κB luciferase reporter | reporter gene, measured: NF-κB |  | 50 µM, 6 h, together with: TNFα |  | inhibition | 0% |
| H-ARPCA-NH2 (C-amide) | GM7373 bovine endothelial | cell proliferation, inhibitor | peptide | 24 h, together with: 0.55 nM FGF2, 0.4% FCS |  | ID50 | 500 µM |
| Ac-ALPCA-NH2 (N-acetyl, C-amide) | GM7373 bovine endothelial | cell proliferation, inhibitor | peptide | 24 h, together with: 0.55 nM FGF2, 0.4% FCS |  | ID50 | > 1000 µM |
| CSTSCG | bovine aortic endothelial cells |  | peptide | 2 µg coated per well, 30 to 60 min | reference: thrombospondin-coated wells | adherent cells | 39% |
| COc1cccc2c1C(=O)c1c(O)c3c(c(O)c1C2=O)C[C@@](O)(C(C)=O)C[C@@H]3O[C@H]1C[C@H](N)[C@H](O)[C@H](C)O1 | RS4-11 |  |  | 72 h, together with: cytotoxic drug | below 1 means synergy | combination index | 0.89 ± 0.03 |
